{"data": "Earlier results as cited in several papers", "B1": "CCL1; sequence looked up; chain KSMQVPFSRCCFSFAEQEIPLRAILCYRNTSSICSNEGLIFKLKRGKEACALDTVGWVQRHRKMLRHCPSKRK", "B2": "erenumab; V domains shown; sequence looked up; VH QVQLVESGGGVVQPGRSLRLSCAASGFTFSSFGMHWVRQAPGKGLEWVAVISFDGSIKYSVDSVKGRFTISRDNSKNTLFLQMNSLRAEDTAVYYCARDRLNYYDSSGYYHYKYYGMAVWGQGTTVTVSS; VL QSVLTQPPSVSAAPGQKVTISCSGSSSNIGNNYVSWYQQLPGTAPKLLIYDNNKRPSGIPDRFSGSKSGTSTTLGITGLQTGDEADYYCGTWDSRLSAVVFGGGTKLTVL", "note": "Each line is one published result; not all experiments were run side by side. ± marks the error that the study gave.", "chain of UniProt P04692 (whole entry, unmodified, looked up)": "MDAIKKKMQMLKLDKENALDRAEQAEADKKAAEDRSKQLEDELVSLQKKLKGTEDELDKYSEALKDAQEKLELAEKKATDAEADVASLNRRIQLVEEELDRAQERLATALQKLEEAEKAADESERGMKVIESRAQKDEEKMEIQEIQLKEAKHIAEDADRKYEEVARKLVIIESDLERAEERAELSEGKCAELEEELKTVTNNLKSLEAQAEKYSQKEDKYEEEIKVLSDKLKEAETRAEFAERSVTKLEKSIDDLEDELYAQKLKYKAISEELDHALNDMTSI"}
{"Molecule": "B1 (CCL1)", "target or system": "CCR8 Y114A mutant", "assay": "IP accumulation, agonist", "quantity": "EC50", "value": "131 nM"}
{"Molecule": "B2 (erenumab)", "test system": "antibody", "conditions": "concentration not given", "quantity": "hypertension incidence", "value": "43%"}
{"Molecule": "pegcetacoplan", "test system": "human", "conditions": "270 mg/day for 28 days (3.9 mg/kg), arithmetic mean", "quantity": "Cmax", "value": "670 µg/mL"}
{"Molecule": "teicoplanin", "test system": "human patients", "conditions": "dose not given", "quantity": "volume of distribution steady-state", "value": "1.04 L/kg"}
{"Molecule": "insulin icodec", "test system": "White patients with type 1 diabetes, serum", "conditions": "geometric mean", "quantity": "half-life at steady state", "value": "175 h"}
{"Molecule": "STFGYRRGLSKYESIDEDELLASLSAEELKELERELEDIE (Lmod2(2-41); sequence looked up)", "target or system": "Tropomyosin alpha-1 chain (Tpm1, Rattus norvegicus, UniProt P04692, K15N)", "assay": "CD thermal unfolding", "test system": "peptide", "scale": "complex", "quantity": "melting temperature", "value": "28 ± 0.2 °C"}
{"Molecule": "dulaglutide", "test system": "human", "conditions": "1.5 mg once weekly, steady state", "quantity": "clearance", "value": "0.107 L/h"}
{"Molecule": "human hepcidin", "test system": "healthy human, plasma", "conditions": "subcutaneous", "quantity": "Tmax", "value": "~2 h"}
{"Molecule": "albiglutide", "test system": "human", "conditions": "once weekly dosing", "quantity": "tmax", "value": "72 to 96 h"}
{"Molecule": "ranibizumab", "test system": "rabbit", "conditions": "dose not given", "quantity": "half-life", "value": "67.2 h"}
{"Molecule": "insulin degludec", "assay": "population PK model", "conditions": "fixed from prior estimate", "quantity": "absorption rate constant", "value": "0.0382 h⁻¹"}
{"Molecule": "AMTLRKRKFAWYVLSSSLKWLIKKAKKIGVQVCGFE", "target or system": "Staphylococcus aureus", "test system": "peptide, ATCC 6538", "quantity": "MIC", "value": "4 µM"}
{"Molecule": "insulin glargine", "test system": "human type 2 diabetes", "conditions": "double dose, 84 h monitoring", "quantity": "participants with hypoglycaemia", "value": "35.5%"}
{"note": "Some of these lines once more:"}
{"Molecule": "insulin icodec", "test system": "White patients with type 1 diabetes, serum", "conditions": "geometric mean", "quantity": "half-life at steady state", "value": "175 h"}
{"Molecule": "teicoplanin", "test system": "human patients", "conditions": "dose not given", "quantity": "volume of distribution steady-state", "value": "1.04 L/kg"}
